{"data": "Published values collected from several papers", "note": "Each numbered part is a random draw from the data of one study; scales do not carry over between parts. Substitutions count along the parent as printed."}
{"data": "Set 1", "target": "RNA binding protein fox-1 homolog 2, RRM domain, GST-SBP tag (RBFOX2, Homo sapiens, UniProt O43251-10, residues 100-194)", "method": "RNA Bind-n-Seq", "form": "RNA", "medium": "in vitro", "tested at": "365 nM", "setting": "natural RNA segment, single round, ends assumed", "baseline": "no-protein control", "direction": "higher = stronger binding", "all sequences stand within": "GGGAGUUCUACAGUCCGACGAUC … UGGAAUUCUCGGGUGCCAA", "Target sequence (chain)": "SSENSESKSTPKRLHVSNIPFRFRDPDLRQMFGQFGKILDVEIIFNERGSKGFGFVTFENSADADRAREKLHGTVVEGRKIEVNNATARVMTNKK"}
{"Oligonucleotide": "CACGGUUUGCUGAUCUCAAACGGGCACUUAAAGCCUGGUAUGGGUGUGUGAUUUAGUGACUGAGCCUGCCCUUCUGUUUGUCAGUUACGUUUCUACCCUUCAAUUAGCUG", "RBNS enrichment (R)": 3.08}
{"Oligonucleotide": "GCUUUUAGUCUGGCCAGGGAUCUGACUCCUGAGUUGGUUGCCUCUCCCCUGCUCACUCCAGUCACAUAGAGAAUUGGUGUUUCCCGCAGUGGGGAUGCAGCUGUUGGACA", "RBNS enrichment (R)": 0.672}
{"Oligonucleotide": "AUAAUAAAAAUGUUAACCAGAAGGUAAACUUGAGUGUAAUUGUCAGACAGACACACUUUUCCACCAGUGUAUUUGAAUUUUAGACCAGUGACCCUGUUUUGUGGCAUUCA", "RBNS enrichment (R)": 0.746}
{"Oligonucleotide": "AGCCAUGCAUCUCUGUGGGAAGAUAGAAGAAUCUCAUGCUCUGCAGUUACAUAGGUAGCAAGGGUUUAUUUUUACUUGGGCAAAUUUCAGUGAUAGGCAUUGAGAUCAUG", "RBNS enrichment (R)": 3.21}
{"Oligonucleotide": "UCAACACAGCCCACAGCCCAUUUUACAGAAACCAAAACUGAGUUCUAACAGGAGGAGUGAUUUGCCCAGGGUUUUUAGCCCUCUCUGGUACAGAACUGGGAUGUGAACAU", "RBNS enrichment (R)": 0.454}
{"Oligonucleotide": "CCCAUGUUUAAGAUUUUUCAUCACUAACAUAUCCAUUAAAAGUAUCAACUGGCCAGGCAGGGUGGCUCACGCCUGUACUCCCAGCAUUUUGUGAGGCCAAGGUGGGUGGA", "RBNS enrichment (R)": 3.04}
{"Oligonucleotide": "UUGUUUCAGACCUCUGAUGGGCCGAGCUGCCUGUGGACGGUGCUCAGACAAGUCUGGGAUUAGAGCCUCAAGGACAUUGUGUGAUUGCCUCACAUUUGCAGGUAAUAUCA", "RBNS enrichment (R)": 0.844}
{"Oligonucleotide": "UUACGAUUUUGUAAUAAAUGUGUACAUUUUUUUUAAAUUUUUGGACAUCACAUGAAUAAAGGUAUGUAUGUACGAAUGUGUAUAUAUUAUAUAUAUGACAUCUAUUUUGG", "RBNS enrichment (R)": 0.549}
{"Oligonucleotide": "UCAGUGCUAGGUUGACAGGUGGGCGUCGCCAUGCCUGGACCAAUUCCUGCACAGCACAGGAAGGCUCCACUCCAUGAAGGAGUGCAUUUAGAAUGGCAUCCUGGUCCUGG", "RBNS enrichment (R)": 0.356}
{"Oligonucleotide": "CAUUUUCACUUCCAGUCUAAGCCAGUGGCUCCUGCCACUGCCCUCCCAUUACCUAGAUGGCACCUCCUUUGGUGAAACCACGGCCAAUGUUCCUUAGCUGCACCAGGCCC", "RBNS enrichment (R)": 0.436}
{"Oligonucleotide": "AGUUCAUUCCACUUUAGGAAACAGAGCUGCCAAUUGAAACAGAAGAAGAAAAAAAAAAAAAGCAGCAGACAACACACUGUAGAGUCUUGCACACACACAAGUGCCCAGGC", "RBNS enrichment (R)": 0.699}
{"Oligonucleotide": "CUCAAGCAGUGUGCUGGACCUAAAAUACUGACUUUAGUUAGUAUCCUUGGAUUUUUAGAUUCCCAGUGUCUAAUUCCCUGUUAUAAUUUGCACAAACAAAACAAAAUGUU", "RBNS enrichment (R)": 0.524}
{"data": "Set 2", "target": "Interferon regulatory factor 7, full length, phosphomimetic (IRF7, Homo sapiens, UniProt Q92985, residues 1-503, S471D/S472D/S475D/S476D/S477D/S483D/S484D/S487D)", "method": "protein-binding microarray", "form": "double-stranded DNA, one strand shown", "medium": "in vitro", "tested at": "2200 nM top", "setting": "60-bp whole probe", "with": "salmon DNA 0.4 mg/ml", "baseline": "random background probes", "direction": "higher = stronger binding", "all sequences stand within": "GCCTAGCAC … GTCTTGATTCGCTTGACGCTGCTG", "chain of UniProt Q92985 (whole entry, unmodified, looked up)": "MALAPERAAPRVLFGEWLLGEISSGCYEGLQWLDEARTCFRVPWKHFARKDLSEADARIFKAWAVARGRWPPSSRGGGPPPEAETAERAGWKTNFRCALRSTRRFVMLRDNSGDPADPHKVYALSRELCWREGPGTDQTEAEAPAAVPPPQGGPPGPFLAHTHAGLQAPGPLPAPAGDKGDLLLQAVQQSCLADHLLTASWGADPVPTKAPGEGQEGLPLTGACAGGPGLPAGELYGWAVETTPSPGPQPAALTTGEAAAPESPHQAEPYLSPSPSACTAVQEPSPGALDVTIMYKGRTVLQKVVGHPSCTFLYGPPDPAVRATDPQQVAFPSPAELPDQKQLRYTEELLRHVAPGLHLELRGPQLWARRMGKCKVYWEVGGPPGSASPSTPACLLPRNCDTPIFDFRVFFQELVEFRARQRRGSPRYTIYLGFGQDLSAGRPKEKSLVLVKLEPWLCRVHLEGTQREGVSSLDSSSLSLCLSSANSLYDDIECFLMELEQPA"}
{"Oligonucleotide": "TGGTTTTTACTTTCTGAATGGTGCTAG", "fitted relative affinity [z-score]": 4.64}
{"Oligonucleotide": "TCATCTCCATTTTTCTAACTGTGCTAG", "fitted relative affinity [z-score]": 2.1}
{"Oligonucleotide": "GACAGTTTCGACTTTCGGGACGTGCTA", "fitted relative affinity [z-score]": 10.4}
{"Oligonucleotide": "GCGGTTGGATCACAAGGTCAGTGCTAG", "fitted relative affinity [z-score]": 0.418}
{"Oligonucleotide": "GACGGTTTCGACATTGGGGACGTGCTA", "fitted relative affinity [z-score]": 3.84}
{"Oligonucleotide": "TCAGATATAAATGTAACACTGTGCTAG", "fitted relative affinity [z-score]": -0.182}
{"Oligonucleotide": "GACGGACTGGAGTATCGGGACGTGCTA", "fitted relative affinity [z-score]": -0.839}
{"Oligonucleotide": "TCATTTTTTTATTTATAACTGTGCTAG", "fitted relative affinity [z-score]": 1.32}
{"Oligonucleotide": "TTAGGGTTCGGGTTTCGGTTAGTGCTA", "fitted relative affinity [z-score]": 4.21}
{"Oligonucleotide": "TAAGGTATCGGGACTGGGTTAGTGCTA", "fitted relative affinity [z-score]": -0.582}
{"Oligonucleotide": "TTAGGACTGGGTTTCTGTTAGTGCTAG", "fitted relative affinity [z-score]": 0.867}
{"Oligonucleotide": "GACGATAGCAGTTTCGAGACGTGCTAG", "fitted relative affinity [z-score]": 2.84}
{"Oligonucleotide": "TTAGGGTTCGGTTTCGGTTAGTGCTAG", "fitted relative affinity [z-score]": 7.65}
{"Oligonucleotide": "TTAGGGCTGGGACTGGGTTAGTGCTAG", "fitted relative affinity [z-score]": -0.931}
{"Oligonucleotide": "CGGCTACCGCGGCTCCTACAGTGCTAG", "fitted relative affinity [z-score]": -0.587}
{"Oligonucleotide": "GACGGTTCTCTTTTCCTGACGTGCTAG", "fitted relative affinity [z-score]": 1.96}
{"Oligonucleotide": "GACGGTCTCGGAATCGGGACGTGCTAG", "fitted relative affinity [z-score]": -0.186}
{"Oligonucleotide": "GTGTTTCTCAACCATTTTGTTGTGCTA", "fitted relative affinity [z-score]": 1.9}
{"Oligonucleotide": "ATGAGCCTCTGTTTTGAGCAGTGCTAG", "fitted relative affinity [z-score]": 0.382}
{"Oligonucleotide": "GACGATTTCAATATCGAGACGTGCTAG", "fitted relative affinity [z-score]": 0.452}
{"Oligonucleotide": "TCCTCTCTCTATTCAGAGGAGTGCTAG", "fitted relative affinity [z-score]": 1.63}
{"data": "Set 3", "target": "ABI1, truncated, D143A, DHFR fusion (Arabidopsis thaliana)", "method": "DHFR PCA, deep sequencing", "medium": "yeast", "setting": "methotrexate growth selection, single substitutions", "with": "(+)-ABA 0.032 µM", "baseline": "wild-type fitted maximum", "direction": "higher = stronger binding", "parent": "PYL1, truncated, DHFR fusion (Arabidopsis thaliana); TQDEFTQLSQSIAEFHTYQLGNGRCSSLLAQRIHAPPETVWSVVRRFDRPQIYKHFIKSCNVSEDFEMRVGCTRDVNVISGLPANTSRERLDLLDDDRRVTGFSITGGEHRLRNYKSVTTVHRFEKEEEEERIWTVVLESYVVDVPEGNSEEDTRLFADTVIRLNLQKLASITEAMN; partner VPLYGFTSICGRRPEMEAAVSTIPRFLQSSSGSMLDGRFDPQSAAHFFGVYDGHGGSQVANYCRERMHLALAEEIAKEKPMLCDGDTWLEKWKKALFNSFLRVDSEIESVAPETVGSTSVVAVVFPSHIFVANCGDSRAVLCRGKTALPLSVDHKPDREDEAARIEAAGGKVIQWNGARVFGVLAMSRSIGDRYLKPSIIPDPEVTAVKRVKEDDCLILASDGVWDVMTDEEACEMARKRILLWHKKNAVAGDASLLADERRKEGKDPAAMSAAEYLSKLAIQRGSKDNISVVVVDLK"}
{"Variant": "D159N", "relative binding score [%]": 13.6}
{"Variant": "D97F", "relative binding score [%]": 11.7}
{"Variant": "E147M", "relative binding score [%]": 4.22}
{"Variant": "S27Y", "relative binding score [%]": 5.22}
{"Variant": "V161I", "relative binding score [%]": 55.5}
{"Variant": "S59R", "relative binding score [%]": 4.39}
{"Variant": "T6I", "relative binding score [%]": 27.7}
{"Variant": "E64Y", "relative binding score [%]": 1.36}
{"Variant": "A158H", "relative binding score [%]": 32.9}
{"Variant": "L28F", "relative binding score [%]": -2.91}
{"Variant": "V43S", "relative binding score [%]": -3.62}
{"Variant": "R99I", "relative binding score [%]": 2.45}
{"Variant": "V145A", "relative binding score [%]": -3.93}
{"Variant": "T101A", "relative binding score [%]": 8.49}
{"Variant": "E89S", "relative binding score [%]": 1.13}
{"Variant": "D92C", "relative binding score [%]": -8.37}
{"Variant": "T154V", "relative binding score [%]": 37.7}
{"data": "Set 4", "target": "Histone acetyltransferase KAT6A, winged helix 2, GST fusion (KAT6A, Homo sapiens, UniProt Q92794, residues 85-181)", "method": "protein binding microarray", "form": "double-stranded DNA, one strand shown", "medium": "in vitro", "tested at": "not given", "setting": "8-mer, flanks averaged, mean of 2 arrays, mostly near background", "baseline": "not given", "direction": "higher = stronger binding", "Target sequence (chain)": "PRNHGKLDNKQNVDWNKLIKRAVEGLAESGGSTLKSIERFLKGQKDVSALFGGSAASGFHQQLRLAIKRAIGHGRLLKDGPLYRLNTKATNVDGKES"}
{"Oligonucleotide": "CTAGGCTC", "E-score": 0.0003}
{"Oligonucleotide": "GACACGTC", "E-score": -0.155}
{"Oligonucleotide": "ACGGCCAA", "E-score": 0.0182}
{"Oligonucleotide": "ATGAACAC", "E-score": -0.0354}
{"Oligonucleotide": "CTCACCCC", "E-score": -0.0612}
{"Oligonucleotide": "ATCGTCCA", "E-score": -0.13}
{"Oligonucleotide": "GGCGGAAC", "E-score": 0.131}
{"Oligonucleotide": "TATTTGGA", "E-score": -0.05}
{"Oligonucleotide": "CGAGAGCA", "E-score": 0.211}
{"Oligonucleotide": "ACACTGTG", "E-score": -0.0244}
{"Oligonucleotide": "AGATAGGC", "E-score": -0.201}
{"Oligonucleotide": "GAAGCCGA", "E-score": 0.168}
{"Oligonucleotide": "AGTAAGAT", "E-score": -0.0952}
{"Oligonucleotide": "ACTCCTGC", "E-score": 0.00509}
{"Oligonucleotide": "TGCCAACA", "E-score": -0.0287}
{"Oligonucleotide": "CGATGGGC", "E-score": 0.137}
{"Oligonucleotide": "TCGGTACA", "E-score": -0.142}
{"Oligonucleotide": "ACGCTACA", "E-score": -0.202}
{"Oligonucleotide": "AGCTACGC", "E-score": 0.143}
{"Oligonucleotide": "TACACGAA", "E-score": 0.134}
{"Oligonucleotide": "ATGCCCCC", "E-score": -0.185}
{"Oligonucleotide": "CCATAATA", "E-score": -0.152}
{"Oligonucleotide": "CAATCGAG", "E-score": -0.0671}
{"Oligonucleotide": "AGAGTCGC", "E-score": -0.00153}
{"Oligonucleotide": "AATCACAA", "E-score": -0.19}
{"data": "Set 5", "target": "CCND3, cyclin fold, Cln2 fusion (human)", "method": "yeast growth competition, sequencing", "medium": "yeast", "setting": "weak parent motif", "baseline": "not given", "direction": "higher = stronger binding", "parent": "MASTL docking peptide (human); PMIAKNLMCELDE"}
{"Variant": "PMIAKNKMCELDE [L7K]", "normalised enrichment score": 0.277}
{"Variant": "PMIACNLMCELDE [K5C]", "normalised enrichment score": -0.141}
{"Variant": "PMIADNLMCELDE [K5D]", "normalised enrichment score": -0.116}
{"Variant": "PMIAKQLMCELDE [N6Q]", "normalised enrichment score": -0.000307}
{"Variant": "PMIAKNLMHELDE [C9H]", "normalised enrichment score": -0.151}
{"Variant": "PMIAKILMCELDE [N6I]", "normalised enrichment score": 0.0487}
{"Variant": "PMIAKNLMCERDE [L11R]", "normalised enrichment score": -0.399}
{"Variant": "PMIAKNSMCELDE [L7S]", "normalised enrichment score": -0.179}
{"Variant": "PMIAKNLMCLLDE [E10L]", "normalised enrichment score": 0.126}
{"Variant": "PMIAKNLMTELDE [C9T]", "normalised enrichment score": 0.00245}
{"Variant": "PYIAKNLMCELDE [M2Y]", "normalised enrichment score": 0.126}
{"Variant": "PMIAKNLMCELYE [D12Y]", "normalised enrichment score": -0.258}
{"Variant": "PMIAKLLMCELDE [N6L]", "normalised enrichment score": 0.573}
{"Variant": "PMIAKNLMKELDE [C9K]", "normalised enrichment score": -0.104}
{"Variant": "PMIAKNLMCELTE [D12T]", "normalised enrichment score": 0.154}
{"Variant": "PMIAKNLCCELDE [M8C]", "normalised enrichment score": -0.431}
{"Variant": "PDIAKNLMCELDE [M2D]", "normalised enrichment score": 0.23}
